{"data": "Assay results gathered from unrelated publications", "note": "A part holds a random share of what one study measured. Changes are numbered by the printed parent chain."}
{"data": "Study 1", "target": "Phosphate system positive regulatory protein PHO4, full length, GST-tagged (PHO4, Saccharomyces cerevisiae, UniProt P07270, residues 1-312)", "technique": "competition protein-binding microarray", "molecule type": "double-stranded DNA, one strand shown", "sample": "in vitro", "tested at": "2 µM", "setting": "whole 60-bp probe, lowest competitor level", "together with": "Cbf1 competitor, 0.05 µM", "reading": "higher = stronger binding", "Target sequence (chain)": "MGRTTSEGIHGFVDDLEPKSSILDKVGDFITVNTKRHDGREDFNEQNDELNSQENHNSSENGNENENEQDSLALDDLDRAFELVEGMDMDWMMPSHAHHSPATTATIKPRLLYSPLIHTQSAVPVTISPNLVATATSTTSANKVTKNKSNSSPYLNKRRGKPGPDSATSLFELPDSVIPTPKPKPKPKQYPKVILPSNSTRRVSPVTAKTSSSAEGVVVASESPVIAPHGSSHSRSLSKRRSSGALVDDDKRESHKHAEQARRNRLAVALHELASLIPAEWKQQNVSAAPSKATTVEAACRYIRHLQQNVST"}
{"Sequence": "TCTCACCCATTCCGTCACGCTTTGGTTGCCGGTATTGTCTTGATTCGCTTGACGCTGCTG", "fluorescence intensity [a.u.]": 6500}
{"Sequence": "TGCGCAACAACTTGTGAAGTGGGTGTATGTCTAGAAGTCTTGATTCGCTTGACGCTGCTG", "fluorescence intensity [a.u.]": 4760}
{"Sequence": "GTCTTGTCTCATTGTCACTGCACTTTCCCCACTTCAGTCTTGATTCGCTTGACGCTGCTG", "fluorescence intensity [a.u.]": 4650}
{"Sequence": "TTCTTGTAGTCAACGTACATGATGTTGTCGTCCCAAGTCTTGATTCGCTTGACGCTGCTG", "fluorescence intensity [a.u.]": 6200}
{"Sequence": "GGCTATTGAATCTCCAACGTGACGGTCGGTGAGAATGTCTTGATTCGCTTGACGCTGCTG", "fluorescence intensity [a.u.]": 11900}
{"Sequence": "GATCCAGATTTCGACCACGTGCTAATTATGCGTTTGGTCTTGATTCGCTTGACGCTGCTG", "fluorescence intensity [a.u.]": 20300}
{"Sequence": "TGCTAGAATACATCGCACGGCTCGCGGAAAGCAACCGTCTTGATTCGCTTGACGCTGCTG", "fluorescence intensity [a.u.]": 4680}
{"Sequence": "CTTCTGTAAATTTGCAAAGTGGGTGGACGCGCCCCGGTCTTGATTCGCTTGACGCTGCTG", "fluorescence intensity [a.u.]": 3420}
{"data": "Study 2", "target": "CCND1, cyclin fold, Cln2 fusion (human)", "technique": "yeast growth competition, sequencing", "sample": "yeast", "setting": "strong parent motif", "relative to": "not given", "reading": "higher = stronger binding", "starting sequence": "viral docking peptide; KGVKRKLFAEDSS; partner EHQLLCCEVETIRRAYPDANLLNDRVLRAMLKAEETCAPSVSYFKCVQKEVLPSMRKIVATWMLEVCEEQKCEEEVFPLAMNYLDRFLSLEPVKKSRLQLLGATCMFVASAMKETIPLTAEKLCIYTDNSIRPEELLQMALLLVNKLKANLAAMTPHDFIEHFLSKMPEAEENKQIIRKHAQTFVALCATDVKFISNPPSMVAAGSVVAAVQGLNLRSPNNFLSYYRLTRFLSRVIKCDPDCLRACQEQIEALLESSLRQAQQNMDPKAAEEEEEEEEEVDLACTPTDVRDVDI"}
{"Change": "K6S", "normalised enrichment score": 0.115}
{"Change": "K4S", "normalised enrichment score": 1.75}
{"Change": "F8C", "normalised enrichment score": 0.165}
{"Change": "A9S", "normalised enrichment score": 1.28}
{"data": "Study 3", "target": "inorganic phosphate, free oxyanion", "technique": "microfluidic competitive inhibition", "sample": "in vitro, cell-free expressed", "tested at": "not given", "setting": "derived from inhibition constants, unchanged parent 615000 nM", "reading": "lower = stronger binding", "starting sequence": "PafA, mature enzyme, eGFP fusion (Elizabethkingia meningoseptica, UniProt Q9KJX5); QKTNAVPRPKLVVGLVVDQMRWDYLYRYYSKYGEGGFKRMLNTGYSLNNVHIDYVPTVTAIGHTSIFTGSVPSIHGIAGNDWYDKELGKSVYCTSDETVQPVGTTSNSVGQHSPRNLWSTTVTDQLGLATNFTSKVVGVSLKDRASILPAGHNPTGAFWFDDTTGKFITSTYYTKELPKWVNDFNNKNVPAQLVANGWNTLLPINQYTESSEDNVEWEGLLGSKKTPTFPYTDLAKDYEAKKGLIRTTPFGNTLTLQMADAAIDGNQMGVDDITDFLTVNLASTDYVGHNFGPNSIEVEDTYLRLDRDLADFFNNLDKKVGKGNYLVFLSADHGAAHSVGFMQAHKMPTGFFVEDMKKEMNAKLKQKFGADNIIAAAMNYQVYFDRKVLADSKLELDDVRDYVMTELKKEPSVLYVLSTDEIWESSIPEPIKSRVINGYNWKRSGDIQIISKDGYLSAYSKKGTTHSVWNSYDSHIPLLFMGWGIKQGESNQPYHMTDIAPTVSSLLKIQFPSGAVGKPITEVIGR"}
{"Change": "P348G", "phosphate dissociation constant": "498 µM"}
{"Change": "G514A", "phosphate dissociation constant": "447 µM"}
{"Change": "A362V", "phosphate dissociation constant": "689 µM"}
{"Change": "L141V", "phosphate dissociation constant": "722 µM"}
{"Change": "E34V", "phosphate dissociation constant": "698 µM"}
{"Change": "C93V", "phosphate dissociation constant": "470 µM"}
{"data": "Study 4", "target": "UDP-N-acetylglucosamine--peptide N-acetylglucosaminyltransferase 110 kDa subunit (OGT, Homo sapiens, UniProt O15294)", "observed": "binding", "technique": "phage display NGS", "molecule type": "peptide", "relative to": "input library", "chain of UniProt O15294 (whole entry, looked up)": "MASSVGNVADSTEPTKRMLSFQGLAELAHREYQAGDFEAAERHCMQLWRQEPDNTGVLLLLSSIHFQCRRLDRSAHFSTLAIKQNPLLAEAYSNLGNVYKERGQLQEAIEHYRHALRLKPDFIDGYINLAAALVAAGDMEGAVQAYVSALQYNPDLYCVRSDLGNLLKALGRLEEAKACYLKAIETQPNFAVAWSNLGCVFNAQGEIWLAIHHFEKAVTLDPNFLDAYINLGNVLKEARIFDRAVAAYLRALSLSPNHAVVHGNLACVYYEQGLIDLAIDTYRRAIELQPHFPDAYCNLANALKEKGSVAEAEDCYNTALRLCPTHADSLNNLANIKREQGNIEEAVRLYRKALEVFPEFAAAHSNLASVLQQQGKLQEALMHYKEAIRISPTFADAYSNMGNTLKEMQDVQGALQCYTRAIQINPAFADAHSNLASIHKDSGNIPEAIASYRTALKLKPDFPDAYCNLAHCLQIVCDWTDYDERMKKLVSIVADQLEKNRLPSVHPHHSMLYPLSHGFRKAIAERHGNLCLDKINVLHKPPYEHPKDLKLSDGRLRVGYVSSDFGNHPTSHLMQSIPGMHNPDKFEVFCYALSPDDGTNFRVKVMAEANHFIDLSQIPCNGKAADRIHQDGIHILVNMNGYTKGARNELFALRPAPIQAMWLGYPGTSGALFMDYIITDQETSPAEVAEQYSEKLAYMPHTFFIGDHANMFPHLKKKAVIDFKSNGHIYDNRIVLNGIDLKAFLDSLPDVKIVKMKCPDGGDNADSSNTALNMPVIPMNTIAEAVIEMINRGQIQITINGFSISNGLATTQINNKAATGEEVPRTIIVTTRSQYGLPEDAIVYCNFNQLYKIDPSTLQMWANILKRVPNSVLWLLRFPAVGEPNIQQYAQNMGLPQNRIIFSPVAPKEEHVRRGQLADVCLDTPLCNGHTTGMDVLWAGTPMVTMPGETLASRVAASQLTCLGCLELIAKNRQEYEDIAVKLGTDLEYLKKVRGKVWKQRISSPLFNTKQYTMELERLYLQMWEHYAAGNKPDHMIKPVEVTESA"}
{"Molecule": "YTPIQHHISHTHHAE", "minimum log2 enrichment ratio": 2.53}
{"Molecule": "RPLEQSHHHIFFSKR", "minimum log2 enrichment ratio": 1.03}
{"Molecule": "FVNTWHYPKTANYHA", "minimum log2 enrichment ratio": 1.7}
{"Molecule": "RVQHTFQHETGKHHH", "minimum log2 enrichment ratio": 2.6}
